Results gathered from unrelated publications.
Protocols differ between the studies behind these lines. Numbers after ± are the reported error.
USP3 ZnF-UBD domain: Ubiquitin carboxyl-terminal hydrolase 3, ZnF-UBD domain (USP3, Homo sapiens, UniProt Q9Y6I4)
Chain of UniProt Q9Y6I4 (whole entry, looked up): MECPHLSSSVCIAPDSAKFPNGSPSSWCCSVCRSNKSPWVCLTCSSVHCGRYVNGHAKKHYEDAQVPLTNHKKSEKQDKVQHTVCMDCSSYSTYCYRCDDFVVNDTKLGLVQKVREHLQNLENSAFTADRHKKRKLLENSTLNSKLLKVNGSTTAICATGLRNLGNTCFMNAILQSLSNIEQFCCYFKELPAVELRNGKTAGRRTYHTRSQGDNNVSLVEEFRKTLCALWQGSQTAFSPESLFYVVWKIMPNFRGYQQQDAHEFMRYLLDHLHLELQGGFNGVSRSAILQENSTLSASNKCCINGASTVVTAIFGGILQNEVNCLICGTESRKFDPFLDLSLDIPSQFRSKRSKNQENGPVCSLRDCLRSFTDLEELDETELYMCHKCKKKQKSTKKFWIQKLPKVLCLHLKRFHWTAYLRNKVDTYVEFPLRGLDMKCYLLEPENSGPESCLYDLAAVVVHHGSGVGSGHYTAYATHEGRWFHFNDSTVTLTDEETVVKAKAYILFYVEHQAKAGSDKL
Chain of UniProt P52564 (whole entry, looked up): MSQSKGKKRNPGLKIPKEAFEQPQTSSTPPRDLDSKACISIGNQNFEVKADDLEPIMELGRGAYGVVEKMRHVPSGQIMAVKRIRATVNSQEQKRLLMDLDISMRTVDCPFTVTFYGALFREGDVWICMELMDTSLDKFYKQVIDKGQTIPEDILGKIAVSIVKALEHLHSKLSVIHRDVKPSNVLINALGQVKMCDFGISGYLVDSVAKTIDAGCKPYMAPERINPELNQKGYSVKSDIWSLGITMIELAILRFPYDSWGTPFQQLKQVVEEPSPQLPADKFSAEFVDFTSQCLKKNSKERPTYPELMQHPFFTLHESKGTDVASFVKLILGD
Chain of UniProt Q9Y3R4 (whole entry, looked up): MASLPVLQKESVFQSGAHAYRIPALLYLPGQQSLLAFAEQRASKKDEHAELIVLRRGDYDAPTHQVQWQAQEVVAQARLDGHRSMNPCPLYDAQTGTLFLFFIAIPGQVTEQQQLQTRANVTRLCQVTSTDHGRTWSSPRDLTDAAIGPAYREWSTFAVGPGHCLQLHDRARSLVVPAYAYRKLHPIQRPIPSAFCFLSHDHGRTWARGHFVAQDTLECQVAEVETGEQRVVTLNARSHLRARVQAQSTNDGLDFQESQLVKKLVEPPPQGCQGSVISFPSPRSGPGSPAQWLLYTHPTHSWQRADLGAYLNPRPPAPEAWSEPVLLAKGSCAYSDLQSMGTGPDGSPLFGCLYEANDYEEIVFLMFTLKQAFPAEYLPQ

SMILES = OC[C@H]1O[C@@H](c2ccc(Cl)c(Cc3ccc(O[C@H]4CCOC4)cc3)c2)[C@H](O)[C@@H](O)[C@@H]1O; test system = Japanese type 1 diabetes patients, blood; setting = 10 mg, day 28; scale = relative to: baseline; endpoint = change in Potassium; value = -0.1 mEq/L
SMILES = O=C(O)CNc1ncccn1; target or system = USP3 ZnF-UBD domain; endpoint = Kd; value = 855 µM
SMILES = [N-]=[N+]=NCC(=O)N[C@H]1[C@H]([C@H](O)[C@H](O)CO)O[C@@](OC[C@H]2O[C@@H](Oc3ccc([N+](=O)[O-])cc3)[C@H](O)[C@@H](O)[C@H]2O)(C(=O)O)C[C@@H]1O; target or system = Sialidase-2 (Homo sapiens, UniProt Q9Y3R4); test = substrate; setting = 10 min, pH 5.0, 37 °C; endpoint = kcat; value = 0.13 ± 0.02 s⁻¹
SMILES = CC[C@H](C)[C@H](NC(=O)[C@H](Cc1ccccc1)NC(=O)[C@H](CCC(=O)O)NC(=O)[C@H](CCCCNC(=O)COCCOCCNC(=O)COCCOCCNC(=O)CC[C@H](NC(=O)CCCCCCCCCCCCCCCCC(=O)O)C(=O)O)NC(=O)[C@H](C)NC(=O)[C@H](C)NC(=O)[C@H](CCC(N)=O)NC(=O)CNC(=O)[C@H](CCC(=O)O)NC(=O)[C@H](CC(C)C)NC(=O)[C@H](Cc1ccc(O)cc1)NC(=O)[C@H](CO)NC(=O)[C@H](CO)NC(=O)[C@@H](NC(=O)[C@H](CC(=O)O)NC(=O)[C@H](CO)NC(=O)[C@@H](NC(=O)[C@H](Cc1ccccc1)NC(=O)[C@@H](NC(=O)CNC(=O)[C@H](CCC(=O)O)NC(=O)C(C)(C)NC(=O)[C@@H](N)Cc1cnc[nH]1)[C@@H](C)O)[C@@H](C)O)C(C)C)C(=O)N[C@@H](C)C(=O)N[C@@H](Cc1c[nH]c2ccccc12)C(=O)N[C@@H](CC(C)C)C(=O)N[C@H](C(=O)N[C@@H](CCCNC(=N)N)C(=O)NCC(=O)N[C@@H](CCCNC(=N)N)C(=O)NCC(=O)O)C(C)C; test = measured: Moderate adverse events; test system = type 2 diabetes patients; setting = dose not given; scale = relative to: subjects; endpoint = adverse event incidence; value = 46.7%
SMILES = CC(C)C(=O)O[C@H]1[C@H](C)OC(=O)[C@@H]1Cc1ccccc1; test = soil adsorption; test system = clay loam soil; setting = pH 6.8, organic carbon 0.5 %; endpoint = KFoc; value = 452 mL/g
SMILES = CC[C@@H]1[C@H](F)C(=O)N[C@@H]1COc1nccc2cc(C(N)=O)c(OC)cc12; target or system = MAP2K6 (Homo sapiens, UniProt P52564); test = ATP-site probe binding, inhibitor, ActivX ATP probe profiling; test system = THP-1 cell lysate; setting = probe site Lys1; endpoint = IC50; value = 3 µM
SMILES = CC(C)C[C@H](NC(=O)C[C@H](O)[C@H](CC(C)C)NC(=O)[C@H](Cc1c[nH]cn1)NC(=O)CNC(=O)[C@@H](NC(=O)[C@H](C)NC(=O)[C@H](Cc1c[nH]c2ccccc12)NC(=O)[C@H](CCC(N)=O)NC(=O)[C@@H](Cc1ccccc1)NC(=O)COCCOCCNC(=O)CCC(C(=O)O)N1CCN(CC(=O)O)CCN(CC(=O)O)CCN(CC(=O)O)CC1)C(C)C)C(N)=O (some centres unmarked) [lutetium-177 labelled]; test system = BALB/c nu/nu mice, female, spleen; setting = intravenous, 100 pmol, 30 min, time course 0.5 h, added: PA 300 µg; endpoint = tissue uptake; value = 0.8 ± 0.3 %ID/g
SMILES = C[C@@H](Nc1cc(F)cc(F)c1)c1cc(C(=O)N(C)C)cc2c(=O)cc(N3CCOCC3)oc12; test = measured: Dehydration; test system = advanced solid tumour patients; setting = oral, dose not given, dose finding; endpoint = related serious adverse events; value = 0%
SMILES = Cc1cc(NC2CCN(C(=O)OC3CCN(C(=O)/C=C/CN(C)C)C3)CC2)n2ncc(C(C)C)c2n1 (centres unmarked); test = CTCAE v4.0, measured: Hyponatremia; test system = patients with advanced solid tumours; setting = oral, dose not given, TIW, grade 3 or higher; endpoint = patients with TEAE; value = 18%
SMILES = CC(C)(c1ccc(O)cc1)c1ccc(O)cc1; test system = whole cow milk; setting = 2000 nM nominal; endpoint = dose fraction in milk fat; value = 39.4%
SMILES = O=C(O)CCCOc1ccc([18F])cc1-c1cc(-c2ccccc2C(F)(F)F)n(-c2ccccc2)n1; test = gamma counting; test system = male ddY mice, brain; setting = intravenous, 2.1 MBq, 1 min; endpoint = radioactivity uptake; value = 0.12 ± 0.06 SUV
SMILES = N#Cc1cccc(Nc2ncc(-c3ccccc3)o2)c1; target or system = Trypanosoma brucei; setting = unit not given; scale = relative to: pEC50 T. brucei minus pTC50 HepG2; endpoint = selectivity; value = 1.1
SMILES = CC(C)Cn1cnc2c(N)nc3ccccc3c21; test system = CD-1 mice, liver microsomes; setting = 1 µM, 60 min; endpoint = remaining compound; value = 10%
SMILES = CCOCc1nc(O)c(-c2nnc(Cc3ccc(Cl)cn3)o2)c(O)c1-c1c(OC)cccc1OC; test system = anaesthetized rats, plasma; setting = intravenous infusion, 100 µg/kg/min for 15 min, 20 min washout; endpoint = plasma concentration; value = 9880 ± 488 nM
SMILES = O=C(COc1ccc(Cl)cc1)NC12CC(c3nnc([C@H]4C[C@@H](OC(F)(F)F)C4)o3)(C1)C2; test system = healthy human volunteers fasted, plasma; setting = oral, 200 mg single dose, geometric mean; endpoint = Cmax; value = 2070 nM
SMILES = O=C(c1ccc(C2CCCCC2)cc1)N1CC(O)C1; test = hepatocyte stability; test system = cryopreserved mouse hepatocytes; setting = 1 µM; endpoint = hepatic clearance; value = 79 mL/min/kg
SMILES = Cc1ccc(N(C)C(=O)/C=C/c2ccco2)cc1; test = cold plate test; test system = mice; setting = oral, 30 mg/kg single, 60 min; endpoint = licking latency; value = 18.8 ± 0.8 s
SMILES = O=C(O)CCc1nccs1; target or system = USP3 ZnF-UBD domain; endpoint = Kd; value = 173 µM
SMILES = Cc1ccc(Sc2ccccc2N2CCNCC2)c(C)c1; test = measured: Nausea; test system = healthy adult men; setting = oral, 40 mg single dose, 10 day; endpoint = participants with TEAE; value = 0%
SMILES = CCO; test system = healthy Chinese men; setting = 0.5 g/kg, supine or semi-supine, added: placebo; scale = relative to: baseline; endpoint = maximal decrease in systolic BP; value = -11.7 ± 8.52 mmHg
SMILES = O=C(Nc1ccc(Cl)cc1)Nc1ccc(Cl)c(Cl)c1; test system = whole cow milk; setting = 200 nM nominal; endpoint = dose fraction in milk fat; value = 83.8%
SMILES = Cn1cc(-c2ccc(-c3cncc(Cl)c3N3CCC4(CCNC4=O)CC3)cc2)cn1; target or system = COLO 205; test = gene expression, microarray, measured: KCNN4 mRNA; setting = concentration not given, 6 h; scale = relative to: untreated cells; endpoint = log2 fold change; value = 2.15
SMILES = NC1(C(=O)N[C@@H](CCO)c2ccc(Cl)cc2)CCN(c2nc[nH]c3nccc2-3)CC1; test system = metastatic CRPC patients; setting = 320 mg b.i.d., grade 3 to 4, treatment-related, added: enzalutamide 160 mg daily; endpoint = incidence of weight decreased; value = 0%
SMILES = CNCc1ccc(-c2[nH]c3cc(F)cc4c3c2CCNC4=O)cc1; test system = patients; setting = oral, 480 mg twice daily, all grades; endpoint = abdominal pain incidence; value = 33.3%
SMILES = CC(C)(C(=O)N1CCOc2c(C#N)cncc2C1)C(F)F; test = measured: Headache; test system = human; setting = oral, 20 mg twice daily, 14 days, multiple ascending dose; endpoint = subjects with adverse event; value = 12.5%
SMILES = CCOc1c([C@H](C)n2nc(C)c3c(N)ncnc32)cc(Cl)c(F)c1[C@@H]1CNC(=O)C1; test system = patients, monotherapy; setting = oral, 20 mg once daily, cycle 1 day 1; endpoint = Cmax geometric mean; value = 1140 nM
SMILES = O=C(O)CCC(=O)O.[2H]C([2H])([2H])Oc1cc(C)c2[nH]ccc2c1CN1CC[C@@H](C2CC2)C[C@H]1c1ccc(C(=O)O)cc1; test system = healthy Chinese subjects; setting = 400 mg, single ascending dose; endpoint = TEAE hyponatremia; value = 0%
SMILES = C=CC(=O)Nc1cc(Nc2nccc(-c3cn(C)c4ccccc34)n2)c(OC)cc1N(C)CCN(C)C; test system = human plasma; setting = 72 h, storage stability, medium QC sample; endpoint = recovery; value = 50.2%
SMILES = COc1cccc(-c2cc(F)ccc2[C@H]2Cc3nc(N)nc(C)c3C(=O)N2)n1; test = radioligand, in vitro autoradiography; test system = human and mouse tumour sections; setting = concentration not given, added: Hsp90 inhibitor 10 µM; endpoint = reduction of tracer binding; value = > 85%
SMILES = Cc1cc(Nc2ccc(S(F)(F)(F)(F)F)cc2)n2nc(C(C)(F)F)nc2n1; test system = Plasmodium falciparum malaria patients; setting = oral, 250 mg; endpoint = adverse event Stomatitis; value = 0%
SMILES = CNC(=O)c1ccc(-c2cnc3ncc(Cc4ccc5ncccc5c4)n3n2)cc1F; test = measured: Cough; test system = other cancer patients; setting = oral, 600 mg twice daily, expansion cohort, grade 3-4; endpoint = patients with adverse event; value = 0%
SMILES = COc1cccc2c1C(=O)c1c(O)c3c(c(O)c1C2=O)C[C@@](O)(C(=O)CO)C[C@@H]3O[C@H]1C[C@H](NC(=O)[C@@H]2CCCN2C(=O)CN)[C@H](O)[C@H](C)O1; test system = healthy mouse, plasma; setting = intravenous, 94.4 mg/kg PhAc-ALGP-Dox; endpoint = AUC; value = 1.04 µM·h
SMILES = CCN1CCN(Cc2ccc(NC(=O)c3ccc(C)c(NC(=O)c4cncc(-c5cccs5)c4)c3)cc2C(F)(F)F)CC1; test = LC-MS/MS; test system = C57BL/6 mouse, plasma; setting = intraperitoneal, 10 mg/kg single dose, 2 h; endpoint = mean plasma concentration; value = 186 ng/mL
SMILES = C=CC[C@@H]1/C=C(\C)C[C@H](C)C[C@H](OC)[C@H]2O[C@@](O)(C(=O)C(=O)N3CCCC[C@H]3C(=O)O[C@H](/C(C)=C/[C@@H]3CC[C@@H](O)[C@H](OC)C3)[C@H](C)[C@@H](O)CC1=O)[C@H](C)C[C@@H]2OC; test system = Wistar Kyoto rat, male, 24-hour urine; setting = ip, 0.5 mg/kg/day, day 18; endpoint = urine volume; value = 10 ± 3.4 mL/day
SMILES = O=C(Nc1nc2cccc(-c3ccc(CN4CCS(=O)(=O)CC4)cc3)n2n1)C1CC1; test = measured: nervous system disorders; test system = human rheumatoid arthritis patients; setting = oral, 30 mg once daily, 4 weeks, regardless of relatedness; endpoint = treatment-emergent adverse events; value = 17.6%
SMILES = C[C@H]1O[C@@H](O[C@H]2[C@@H](O)C[C@H](O[C@H]3[C@@H](O)C[C@H](O[C@H]4CC[C@@]5(C)[C@H](CC[C@@H]6[C@@H]5C[C@@H](O)[C@]5(C)[C@@H](C7=CC(=O)OC7)CC[C@]65O)C4)O[C@@H]3C)O[C@@H]2C)C[C@H](O)[C@@H]1O; test = measured: gastrointestinal disorders; test system = healthy men; setting = oral, dose not given, 8 days, treatment-emergent, crossover trial; endpoint = subjects with adverse event; value = 0%
SMILES = COCCC(=O)Nc1ccc([C@H]2[C@@H](F)[C@@H](F)C[C@@H](F)[C@H]2F)cc1; test = liver microsome stability; test system = dog liver microsomes; setting = 1 µM; endpoint = hepatic clearance; value = 7.6 mL/min/kg
SMILES = CSCC[C@H](N)C(=O)N[C@@H](CC(C)C)C(=O)N[C@@H](CCCNC(=N)N)C(=O)N[C@@H](Cc1c[nH]c2ccccc12)C(=O)N[C@@H](CO)C(=O)N[C@@H](CCCNC(=N)N)C(=O)N[C@@H](CCCCN)C(=O)N[C@@H](CC(C)C)C(=O)N1CCC[C@H]1C(=O)N[C@@H](CS)C(=O)N[C@H](C(=O)N[C@@H](CO)C(N)=O)C(C)C; test = 12G5 competition, SUP-T1 cells; test system = human plasma; setting = concentration not given, 2 h; endpoint = remaining activity; value = 8 ± 2%

For quick reference, copied from above:
SMILES = O=C(O)CCC(=O)O.[2H]C([2H])([2H])Oc1cc(C)c2[nH]ccc2c1CN1CC[C@@H](C2CC2)C[C@H]1c1ccc(C(=O)O)cc1; test system = healthy Chinese subjects; setting = 400 mg, single ascending dose; endpoint = TEAE hyponatremia; value = 0%
SMILES = [N-]=[N+]=NCC(=O)N[C@H]1[C@H]([C@H](O)[C@H](O)CO)O[C@@](OC[C@H]2O[C@@H](Oc3ccc([N+](=O)[O-])cc3)[C@H](O)[C@@H](O)[C@H]2O)(C(=O)O)C[C@@H]1O; target or system = Sialidase-2 (Homo sapiens, UniProt Q9Y3R4); test = substrate; setting = 10 min, pH 5.0, 37 °C; endpoint = kcat; value = 0.13 ± 0.02 s⁻¹
SMILES = Cc1ccc(Sc2ccccc2N2CCNCC2)c(C)c1; test = measured: Nausea; test system = healthy adult men; setting = oral, 40 mg single dose, 10 day; endpoint = participants with TEAE; value = 0%
SMILES = CC(C)C[C@H](NC(=O)C[C@H](O)[C@H](CC(C)C)NC(=O)[C@H](Cc1c[nH]cn1)NC(=O)CNC(=O)[C@@H](NC(=O)[C@H](C)NC(=O)[C@H](Cc1c[nH]c2ccccc12)NC(=O)[C@H](CCC(N)=O)NC(=O)[C@@H](Cc1ccccc1)NC(=O)COCCOCCNC(=O)CCC(C(=O)O)N1CCN(CC(=O)O)CCN(CC(=O)O)CCN(CC(=O)O)CC1)C(C)C)C(N)=O (some centres unmarked) [lutetium-177 labelled]; test system = BALB/c nu/nu mice, female, spleen; setting = intravenous, 100 pmol, 30 min, time course 0.5 h, added: PA 300 µg; endpoint = tissue uptake; value = 0.8 ± 0.3 %ID/g
SMILES = Cc1ccc(N(C)C(=O)/C=C/c2ccco2)cc1; test = cold plate test; test system = mice; setting = oral, 30 mg/kg single, 60 min; endpoint = licking latency; value = 18.8 ± 0.8 s
SMILES = CCOc1c([C@H](C)n2nc(C)c3c(N)ncnc32)cc(Cl)c(F)c1[C@@H]1CNC(=O)C1; test system = patients, monotherapy; setting = oral, 20 mg once daily, cycle 1 day 1; endpoint = Cmax geometric mean; value = 1140 nM
